Measurements gathered from unrelated publications.
A part holds a random share of what one study measured.

Set 1 — method: universal PBM; form: double-stranded DNA, one strand shown; sample: in vitro; concentration: 600 nM; direction: higher = stronger binding
Target: Sal-like protein 4, full length isoform A (SALL4, Homo sapiens, UniProt Q9UJQ4, residues 1-1053)
UniProt Q9UJQ4, sequence (whole entry, looked up): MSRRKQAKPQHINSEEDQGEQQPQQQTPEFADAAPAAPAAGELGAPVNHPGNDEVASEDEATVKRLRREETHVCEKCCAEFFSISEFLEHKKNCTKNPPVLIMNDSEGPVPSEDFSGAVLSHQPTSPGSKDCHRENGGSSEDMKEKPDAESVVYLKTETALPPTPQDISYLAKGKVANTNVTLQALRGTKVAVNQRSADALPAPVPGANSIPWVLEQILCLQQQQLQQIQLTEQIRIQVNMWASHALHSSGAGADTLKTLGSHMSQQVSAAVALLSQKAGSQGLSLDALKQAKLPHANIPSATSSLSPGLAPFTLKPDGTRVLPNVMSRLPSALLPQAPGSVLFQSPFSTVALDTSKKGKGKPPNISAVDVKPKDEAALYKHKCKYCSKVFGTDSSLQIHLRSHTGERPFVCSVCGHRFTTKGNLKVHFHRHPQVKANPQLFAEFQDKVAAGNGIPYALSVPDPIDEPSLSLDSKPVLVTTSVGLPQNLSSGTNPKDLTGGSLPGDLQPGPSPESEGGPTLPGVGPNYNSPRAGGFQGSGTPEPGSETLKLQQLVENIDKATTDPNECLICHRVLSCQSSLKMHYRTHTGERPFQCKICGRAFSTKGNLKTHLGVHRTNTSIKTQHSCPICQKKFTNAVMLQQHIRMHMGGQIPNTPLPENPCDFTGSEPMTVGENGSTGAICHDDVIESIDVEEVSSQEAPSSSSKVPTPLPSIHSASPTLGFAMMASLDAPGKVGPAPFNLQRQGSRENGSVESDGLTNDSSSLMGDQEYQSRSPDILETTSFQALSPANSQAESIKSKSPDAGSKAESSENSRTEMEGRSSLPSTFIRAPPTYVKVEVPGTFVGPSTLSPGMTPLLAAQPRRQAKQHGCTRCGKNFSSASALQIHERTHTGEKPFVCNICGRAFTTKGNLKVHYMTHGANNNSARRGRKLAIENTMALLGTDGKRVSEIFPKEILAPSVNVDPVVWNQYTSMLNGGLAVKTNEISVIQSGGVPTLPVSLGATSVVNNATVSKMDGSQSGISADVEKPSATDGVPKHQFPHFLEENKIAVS
Notes: 8-mer, flanks averaged, mean of replicates
Sequence | E-score
GCTTCGAA | -0.181
AATCTCAT | 0.251
CATACTGA | 0.148

Set 2 — method: protein-binding microarray; form: double-stranded DNA, one strand shown; sample: in vitro; concentration: 2200 nM top; notes: 60-bp whole probe; with: salmon DNA 0.4 mg/ml; reference: random background probes; direction: higher = stronger binding; shared flanks, not repeated: GCCTAGCAC … GTCTTGATTCGCTTGACGCTGCTG
Target: Interferon regulatory factor 7, full length, phosphomimetic (IRF7, Homo sapiens, UniProt Q92985, residues 1-503, S471D/S472D/S475D/S476D/S477D/S483D/S484D/S487D)
UniProt Q92985, sequence (whole entry, unmodified, looked up): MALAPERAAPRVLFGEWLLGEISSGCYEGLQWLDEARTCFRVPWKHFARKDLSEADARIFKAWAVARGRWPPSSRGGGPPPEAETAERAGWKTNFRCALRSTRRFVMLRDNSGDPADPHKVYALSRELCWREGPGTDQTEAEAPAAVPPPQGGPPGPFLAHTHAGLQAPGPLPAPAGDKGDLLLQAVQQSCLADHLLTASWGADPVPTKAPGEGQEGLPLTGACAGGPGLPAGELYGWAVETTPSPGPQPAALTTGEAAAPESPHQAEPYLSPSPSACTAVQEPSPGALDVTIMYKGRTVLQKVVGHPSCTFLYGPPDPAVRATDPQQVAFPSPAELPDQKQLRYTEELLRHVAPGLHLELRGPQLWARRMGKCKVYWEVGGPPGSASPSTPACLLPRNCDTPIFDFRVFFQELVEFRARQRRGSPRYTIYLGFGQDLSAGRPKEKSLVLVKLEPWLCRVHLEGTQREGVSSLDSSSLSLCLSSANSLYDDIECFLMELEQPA
Sequence | fitted relative affinity [z-score]
TTAGGACTGGGGTTGCGGTTAGTGCTA | -0.574
GACGGTTTCGGTCTCGGGCCGTGCTAG | 6.42
GACGAACTGAGTTGCGAGACGTGCTAG | -0.0654
GACGGTCTCGGACTGGAGACGTGCTAG | -0.45
TCATTTTTGCATTGCTTACTGTGCTAG | 3.5

Set 3 — method: protein binding microarray; form: double-stranded DNA, one strand shown; sample: in vitro; concentration: not given; reference: not given; direction: higher = stronger binding
Target: Histone acetyltransferase KAT6A, both winged helices, GST fusion (KAT6A, Homo sapiens, UniProt Q92794, residues 1-181)
Notes: 8-mer, flanks averaged, mean of 2 arrays, mostly near background
Construct (chain): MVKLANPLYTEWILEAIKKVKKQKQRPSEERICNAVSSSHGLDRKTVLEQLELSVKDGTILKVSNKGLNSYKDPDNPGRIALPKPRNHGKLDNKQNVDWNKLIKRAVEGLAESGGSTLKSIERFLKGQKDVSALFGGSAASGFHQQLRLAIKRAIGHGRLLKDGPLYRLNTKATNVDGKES
Sequence | E-score
CCGACCCG | 0.245
ATGGAAAG | -0.086
CGCCTCCG | 0.2
TAACGGTA | 0.121
GATGGAAA | -0.0184
AGTAATCG | -0.0982

Further values, each from its own experiment
Molecule | target | assay | test system | conditions | how to read | quantity | result
PhoQ, residues 284 288 289 292 302 303 SVTLVV | PhoP, residues 12 14 15 18 19 NIMAP (Escherichia coli, UniProt P23836) | Sort-seq, measured: YFP reporter | E. coli | PhoQ-PhoP variant library, with: 10 µM Mg2+ | reference: high Mg2+ state, higher = stronger signaling | fold induction | 0.545

Some of these lines once more (set 3):
Sequence | E-score
GATGGAAA | -0.0184
